Results collected from several papers.
Compare with care: the assays were run in different laboratories. ± marks the error that the study gave.
Spike glycoprotein: Spike glycoprotein (Severe acute respiratory syndrome coronavirus 2, UniProt P0DTC2)
Spike glycoprotein RBD: Spike glycoprotein, RBD (Severe acute respiratory syndrome coronavirus 2, UniProt P0DTC2)

SMILES = CCSC[C@H](NC(=O)[C@H](CCCC(=O)NCCN(CC(=O)NCCN(CC(=O)NCCN(CC(=O)NCCN(CC(=O)N[C@@H](CCCNC(=N)N)C(N)=O)C(=O)Cn1cnc2c(=O)[nH]c(N)nc21)C(=O)Cn1ccc(N)nc1=O)C(=O)Cn1ccc(N)nc1=O)C(=O)Cn1cnc2c(=O)[nH]c(N)nc21)NC(=O)[C@H](CCC(=O)O)NC(=O)[C@H](Cc1ccc(O)cc1)NC(=O)[C@@H](NC(=O)[C@H](CCCCN)NC(=O)[C@H](CCC(N)=O)NC(=O)[C@H](CC1CCC1)NC(=O)[C@@H](NC(=O)[C@H](Cc1c[nH]c2ccccc12)NC(=O)[C@H](CCC(=O)O)NC(=O)[C@H](CCCCN)NC(=O)[C@H](CC(=O)O)NC(C)=O)[C@@H](C)CC)[C@@H](C)CC)C(=O)N[C@@H](CCCNC(=N)N)C(=O)N[C@@H](CC(C)C)C(=O)N[C@@H](CC(C)C)C(=O)N[C@@H](CC(=O)O)C(=O)N[C@@H](CCC(=O)O)C(=O)N[C@@H](CC(C)C)C(=O)NCC(=O)N[C@@H](Cc1c[nH]cn1)C(=O)N[C@@H](C)C(=O)N[C@@H](CCC(=O)O)C(=O)N[C@@H](C)C(=O)N[C@@H](CO)C(=O)N[C@@H](CCSC)C(=O)N[C@@H](CCCNC(=N)N)C(=O)N[C@H](C(=O)N[C@@H](CO)C(=O)N[C@@H](CC(=O)O)C(=O)N[C@@H](CCCCNC(=O)CN(CCNC(=O)CN(CCNC(=O)CN(CCNC(=O)CN(CCNC(=O)[C@H](CCCNC(=N)N)NC(C)=O)C(=O)Cn1ccc(N)nc1=O)C(=O)Cn1cnc2c(=O)[nH]c(N)nc21)C(=O)Cn1cnc2c(=O)[nH]c(N)nc21)C(=O)Cn1ccc(N)nc1=O)C(=O)N[C@H](C(=O)N[C@@H](Cc1ccc(O)cc1)C(=O)N[C@@H](CCC(=O)O)C(=O)N[C@@H](Cc1ccccc1)C(=O)N[C@@H](CCSC)C(=O)N[C@@H](CCCCN)C(=O)N[C@@H](CCCCN)C(N)=O)[C@@H](C)CC)C(C)C; tested on = Spike glycoprotein; test = binding, SPR; measurement = Kd; result = 8.1e-05 µM
SMILES = O=C1CC(c2ccc(O)cc2)Oc2cc(OC3OC(CO)C(O)C(O)C3O)c(OC3OC(CO)C(O)C(O)C3O)c(O)c21 (centres unmarked); tested on = Spike glycoprotein; test = binding; measurement = Kd; result = 2.15 µM
SMILES = CC[C@H](C)[C@H](NC(=O)[C@H](CC(C)C)NC(=O)[C@H](CC(=O)O)NC(=O)[C@H](CO)NC(=O)[C@@H](NC(=O)[C@H](CCCNC(=N)N)NC(=O)[C@H](CCSC)NC(=O)[C@H](CO)NC(=O)[C@H](C)NC(=O)[C@H](CCC(=O)O)NC(=O)[C@H](C)NC(=O)[C@H](Cc1c[nH]cn1)NC(=O)CNC(=O)[C@H](CC(C)C)NC(=O)[C@H](CCC(=O)O)NC(=O)[C@H](CC(=O)O)NC(=O)[C@H](CC(C)C)NC(=O)[C@H](CC(C)C)NC(=O)[C@H](CCCNC(=N)N)NC(=O)[C@H](CCSC)NC(=O)[C@@H](NC(=O)[C@H](CCC(=O)O)NC(=O)[C@H](Cc1ccc(O)cc1)NC(=O)[C@@H](NC(=O)[C@H](CCCCN)NC(=O)[C@H](CCC(N)=O)NC(=O)[C@H](CC(C)C)NC(=O)[C@@H](NC(=O)[C@H](Cc1c[nH]c2ccccc12)NC(=O)[C@H](CCC(=O)O)NC(=O)[C@H](CCCCN)NC(=O)[C@@H](N)CC(=O)O)[C@@H](C)CC)[C@@H](C)CC)[C@@H](C)CC)C(C)C)C(=O)N[C@@H](Cc1ccc(O)cc1)C(=O)N[C@@H](CCC(=O)O)C(=O)N[C@@H](Cc1ccccc1)C(=O)N[C@@H](CCSC)C(=O)N[C@@H](CCCCN)C(=O)N[C@@H](CCCCN)C(N)=O; tested on = Spike glycoprotein; test = binding, SPR; measurement = Kd; result = 0.0047 µM
SMILES = O=C(C=Cc1ccc(O)c(O)c1)OC1CC(O)(C(=O)O)CC(OC(=O)C=Cc2ccc(O)c(O)c2)C1O (centres unmarked); tested on = Spike glycoprotein; test = binding, biolayer interferometry; measurement = Kd; result = 1.48 µM
SMILES = CC(=O)N[C@@H](CCCNC(=N)N)C(=O)N[C@@H](CC(=O)O)C(=O)N[C@@H](CC(=O)O)C(=O)N[C@@H](CCC(=O)O)C(=O)N[C@H]1CCC[C@@H]1C(=O)N[C@@H](CCCNC(=N)N)C(=O)N[C@@H](Cc1c[nH]c2ccccc12)C(=O)N[C@@H](CC(C)C)C(=O)N[C@H]1CCC[C@@H]1C(=O)N[C@H](C(=O)N[C@@H](CC(=O)O)C(=O)N[C@H]1CCC[C@@H]1C(=O)N[C@H](C(=O)N[C@@H](Cc1ccc(O)cc1)C(=O)N[C@@H](CCC(=O)O)C(=O)N[C@H]1CCC[C@@H]1C(=O)N[C@@H](Cc1c[nH]c2ccccc12)C(=O)N[C@@H](Cc1c[nH]cn1)C(N)=O)C(C)C)[C@@H](C)O; tested on = Spike glycoprotein RBD; measurement = Kd; result = 0.65 µM
SMILES = CCSC[C@H](NC(=O)[C@H](CCCC(=O)NCCN(CC(=O)NCCN(CC(=O)NCCN(CC(=O)NCCN(CC(=O)N[C@@H](CCCNC(=N)N)C(N)=O)C(=O)Cn1cnc2c(=O)[nH]c(N)nc21)C(=O)Cn1ccc(N)nc1=O)C(=O)Cn1ccc(N)nc1=O)C(=O)Cn1cnc2c(=O)[nH]c(N)nc21)NC(=O)[C@H](CCC(=O)O)NC(=O)[C@H](Cc1ccc(O)cc1)NC(=O)[C@@H](NC(=O)[C@H](CCCCN)NC(=O)[C@H](CCC(N)=O)NC(=O)[C@H](CC1CCC1)NC(=O)[C@@H](NC(=O)[C@H](Cc1c[nH]c2ccccc12)NC(=O)[C@H](CCC(=O)O)NC(=O)[C@H](CCCCN)NC(=O)[C@H](CC(=O)O)NC(C)=O)[C@@H](C)CC)[C@@H](C)CC)C(=O)N[C@@H](CCCNC(=N)N)C(=O)N[C@@H](CC(C)C)C(=O)N[C@@H](CC(C)C)C(=O)N[C@@H](CC(=O)O)C(=O)N[C@@H](CCC(=O)O)C(=O)N[C@@H](CC(C)C)C(=O)NCC(=O)N[C@@H](Cc1c[nH]cn1)C(=O)N[C@@H](C)C(=O)N[C@@H](CCC(=O)O)C(=O)N[C@@H](C)C(=O)N[C@@H](CO)C(=O)N[C@@H](CCSC)C(=O)N[C@@H](CCCNC(=N)N)C(=O)N[C@@H](C)C(=O)N[C@@H](CO)C(=O)N[C@@H](CC(=O)O)C(=O)N[C@@H](CCCCNC(=O)CN(CCNC(=O)CN(CCNC(=O)CN(CCNC(=O)CN(CCNC(=O)CN(CCNC(=O)[C@H](CCCNC(=N)N)NC(C)=O)C(=O)Cn1cc(C)c(=O)[nH]c1=O)C(=O)Cn1ccc(N)nc1=O)C(=O)Cn1cnc2c(=O)[nH]c(N)nc21)C(=O)Cn1cnc2c(=O)[nH]c(N)nc21)C(=O)Cn1ccc(N)nc1=O)C(=O)N[C@H](C(=O)N[C@@H](Cc1ccc(O)cc1)C(=O)N[C@@H](CCC(=O)O)C(=O)N[C@@H](Cc1ccccc1)C(=O)N[C@@H](CCSC)C(=O)N[C@@H](CCCCN)C(=O)N[C@@H](CCCCN)C(N)=O)[C@@H](C)CC; tested on = Spike glycoprotein; test = binding, SPR; measurement = Kd; result = 0.00037 µM
SMILES = CNC(C)C1C(O)CC2(C)C3CCC4C(C)(C)C(NC)CCC45CC35CCC12C (centres unmarked); tested on = Spike glycoprotein; test = binding, BLI; measurement = Kd; result = 38.7 µM
SMILES = CC[C@H](C)[C@H](N)C(=O)N[C@@H](CCC(=O)O)C(=O)N[C@@H](CCC(=O)O)C(=O)N[C@@H](CCC(N)=O)C(=O)N[C@@H](C)C(=O)N[C@@H](CCCCN)C(=O)N[C@H](C(=O)N[C@@H](Cc1ccccc1)C(=O)N[C@@H](CC(C)C)C(=O)N[C@@H](CC(=O)O)C(=O)N[C@@H](CCCCNC(=O)CCS)C(=O)N[C@@H](Cc1ccccc1)C(=O)N[C@@H](CC(N)=O)C(=O)N[C@@H](Cc1c[nH]cn1)C(=O)N[C@@H](CCC(N)=O)C(=O)N[C@@H](C)C(=O)N[C@@H](CCC(=O)O)C(=O)N[C@@H](CC(=O)O)C(=O)N[C@@H](CC(C)C)C(=O)N[C@@H](Cc1ccccc1)C(=O)N[C@@H](Cc1ccc(O)cc1)C(=O)N[C@H](CCCCN)C(=O)O)[C@@H](C)O; tested on = Spike glycoprotein RBD; conditions = pH 7.4; measurement = Kd; result = > 1000 µM
SMILES = CCCCCCCCCCCCCCCC(=O)N[C@@H](CCC(=O)NCCOCCOCCC(=O)NCCOCCOCCC(=O)NCCCC[C@H](NC(=O)[C@H](CC(=O)O)NC(=O)[C@H](CC(C)C)NC(=O)[C@H](Cc1ccc(O)cc1)NC(=O)[C@H](CCCCN)NC(=O)[C@H](CO)NC(=O)[C@H](Cc1ccc(O)cc1)NC(=O)[C@H](CC(=O)O)NC(=O)[C@H](CO)NC(=O)[C@@H](NC(=O)[C@H](Cc1ccccc1)NC(=O)[C@@H](NC(=O)CNC(=O)[C@H](CCC(N)=O)NC(=O)[C@@H](CO)NC(=O)[C@@H](N)Cc1c[nH]cn1)[C@@H](C)O)[C@@H](C)O)C(=O)N[C@@H](CCCNC(=N)N)C(=O)N[C@@H](CCCNC(=N)N)C(=O)N[C@@H](C)C(=O)N[C@@H](CCC(N)=O)C(=O)N[C@@H](CC(=O)O)C(=O)N[C@@H](Cc1ccccc1)C(=O)N[C@H](C(=O)N[C@@H](CCC(N)=O)C(=O)N[C@@H](Cc1c[nH]c2ccccc12)C(=O)N[C@@H](CC(C)C)C(=O)N[C@@H](CC(C)C)C(=O)N[C@@H](CC(N)=O)C(=O)N[C@H](C(=O)NCC(=O)NCC(=O)N1CCC[C@H]1C(=O)N[C@@H](CO)C(=O)N[C@@H](CO)C(=O)NCC(=O)N[C@@H](C)C(=O)N1CCC[C@H]1C(=O)N1CCC[C@H]1C(=O)N1CCC[C@H]1C(=O)N[C@@H](CO)C(N)=O)[C@@H](C)O)C(C)C)C(=O)O; system = Sprague-Dawley rat, male; conditions = subcutaneous, 100 µg/kg once daily, 14 days; measurement = creatinine; result = 23.4 ± 1.8 µmol/L
SMILES = CC(C)C[C@H](NC(=O)[C@H](CO)NC(=O)[C@H](CO)NC(=O)[C@H](CCC(N)=O)NC(=O)[C@H](Cc1ccc(O)cc1)NC(=O)[C@H](Cc1ccccc1)NC(=O)[C@H](CC(C)C)NC(=O)[C@H](CC(=O)O)NC(=O)[C@@H](N)CCC(=O)O)C(=O)N[C@@H](C)C(=O)O; tested on = Spike glycoprotein; test = binding; measurement = Kd; result = 0.0459 µM
SMILES = CC(C)C[C@H](NC(=O)[C@H](Cc1c[nH]c2ccccc12)NC(=O)[C@H](Cc1c[nH]cn1)NC(=O)[C@H]1CCC[C@@H]1NC(=O)[C@H](CCC(=O)O)NC(=O)[C@H](CC(=O)O)NC(=O)[C@H](CC(=O)O)NC(=O)[C@@H](N)CC(N)=O)C(=O)N[C@H]1CCC[C@@H]1C(=O)N[C@H](C(=O)N[C@@H](CC(=O)O)C(=O)N[C@H]1CCC[C@@H]1C(=O)N[C@H](C(=O)N[C@@H](Cc1ccc(O)cc1)C(=O)N[C@@H](CCC(=O)O)C(=O)N[C@H]1CCC[C@@H]1C(=O)N[C@@H](Cc1c[nH]c2ccccc12)C(=O)N[C@@H](Cc1c[nH]cn1)C(N)=O)C(C)C)[C@@H](C)O; tested on = Spike glycoprotein RBD; measurement = Kd; result = 82.5 µM

Repeated from above:
SMILES = CCSC[C@H](NC(=O)[C@H](CCCC(=O)NCCN(CC(=O)NCCN(CC(=O)NCCN(CC(=O)NCCN(CC(=O)N[C@@H](CCCNC(=N)N)C(N)=O)C(=O)Cn1cnc2c(=O)[nH]c(N)nc21)C(=O)Cn1ccc(N)nc1=O)C(=O)Cn1ccc(N)nc1=O)C(=O)Cn1cnc2c(=O)[nH]c(N)nc21)NC(=O)[C@H](CCC(=O)O)NC(=O)[C@H](Cc1ccc(O)cc1)NC(=O)[C@@H](NC(=O)[C@H](CCCCN)NC(=O)[C@H](CCC(N)=O)NC(=O)[C@H](CC1CCC1)NC(=O)[C@@H](NC(=O)[C@H](Cc1c[nH]c2ccccc12)NC(=O)[C@H](CCC(=O)O)NC(=O)[C@H](CCCCN)NC(=O)[C@H](CC(=O)O)NC(C)=O)[C@@H](C)CC)[C@@H](C)CC)C(=O)N[C@@H](CCCNC(=N)N)C(=O)N[C@@H](CC(C)C)C(=O)N[C@@H](CC(C)C)C(=O)N[C@@H](CC(=O)O)C(=O)N[C@@H](CCC(=O)O)C(=O)N[C@@H](CC(C)C)C(=O)NCC(=O)N[C@@H](Cc1c[nH]cn1)C(=O)N[C@@H](C)C(=O)N[C@@H](CCC(=O)O)C(=O)N[C@@H](C)C(=O)N[C@@H](CO)C(=O)N[C@@H](CCSC)C(=O)N[C@@H](CCCNC(=N)N)C(=O)N[C@H](C(=O)N[C@@H](CO)C(=O)N[C@@H](CC(=O)O)C(=O)N[C@@H](CCCCNC(=O)CN(CCNC(=O)CN(CCNC(=O)CN(CCNC(=O)CN(CCNC(=O)[C@H](CCCNC(=N)N)NC(C)=O)C(=O)Cn1ccc(N)nc1=O)C(=O)Cn1cnc2c(=O)[nH]c(N)nc21)C(=O)Cn1cnc2c(=O)[nH]c(N)nc21)C(=O)Cn1ccc(N)nc1=O)C(=O)N[C@H](C(=O)N[C@@H](Cc1ccc(O)cc1)C(=O)N[C@@H](CCC(=O)O)C(=O)N[C@@H](Cc1ccccc1)C(=O)N[C@@H](CCSC)C(=O)N[C@@H](CCCCN)C(=O)N[C@@H](CCCCN)C(N)=O)[C@@H](C)CC)C(C)C; tested on = Spike glycoprotein; test = binding, SPR; measurement = Kd; result = 8.1e-05 µM
SMILES = O=C1CC(c2ccc(O)cc2)Oc2cc(OC3OC(CO)C(O)C(O)C3O)c(OC3OC(CO)C(O)C(O)C3O)c(O)c21 (centres unmarked); tested on = Spike glycoprotein; test = binding; measurement = Kd; result = 2.15 µM
